# Experimental data of several laboratories.
# Parts stem from different laboratories: compare values within a part only. Positions count from the first letter of the parent shown.

# Sample 1
# Target: Histone acetyltransferase KAT6A, winged helix 2, GST fusion (KAT6A, Homo sapiens, UniProt Q92794, residues 85-181)
# Method: protein binding microarray
# Molecule type: double-stranded DNA, one strand shown
# Matrix: in vitro
# Concentration: not given
# Notes: 8-mer, flanks averaged, mean of 2 arrays, mostly near background
# Relative to: not given
# Reading: higher = stronger binding
# Construct (chain): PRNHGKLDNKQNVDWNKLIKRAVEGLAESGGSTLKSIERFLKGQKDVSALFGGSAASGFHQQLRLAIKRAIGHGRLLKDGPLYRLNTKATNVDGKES
Strand,E-score
ACTCTTCT,-0.0899
CCGTTGCA,-0.0524
CGTCGCTC,0.104
ACATATAT,-0.0849
CAGCTTAC,-0.0261
CAATGGAA,0.075
AACACCCA,-0.0969
AGGATCAC,0.0153

# Sample 2
# Target: ABI1, truncated, D143A, DHFR fusion (Arabidopsis thaliana)
# Method: DHFR PCA, deep sequencing
# Matrix: yeast
# Notes: methotrexate growth selection, single substitutions
# Added: (+)-ABA 0 µM
# Relative to: wild-type fitted maximum
# Reading: higher = stronger binding
# Starting sequence: PYL1, truncated, DHFR fusion (Arabidopsis thaliana); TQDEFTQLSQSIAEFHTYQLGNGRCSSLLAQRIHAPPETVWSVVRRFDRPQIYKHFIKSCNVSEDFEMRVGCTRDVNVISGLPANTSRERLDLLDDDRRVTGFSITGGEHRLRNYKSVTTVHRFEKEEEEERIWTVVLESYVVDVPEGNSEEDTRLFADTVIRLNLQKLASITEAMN
Variant,relative binding score
S104I,-4.05%
E151I,25.7%
Y141G,-4.09%
Q51V,-6.6%
R45L,-1.47%
S80Q,9.38%
H55I,15%

# Sample 3
# Target: Prothrombin, mature alpha-thrombin (F2, Homo sapiens, UniProt P00734)
# Method: aptamer microarray, sandwich
# Molecule type: DNA with 2'F-ANA
# Matrix: in vitro
# Concentration: 200 nM
# Notes: whole 15-mer aptamer, many near background
# Added: Cy3 exosite-II aptamer, 400 nM
# Reading: higher = stronger binding
# Strand: GGTTGGTGTGGTTGG
Modification,mean fluorescence intensity
2'F-ANA at 1 2 4 5 8 12 13 15,78.7 a.u.
2'F-ANA at 3 4 5 8 10 11 12 13 14 15,191 a.u.
2'F-ANA at 2 4 5 7 9 11 13 15,52.9 a.u.
2'F-ANA at 1 8 11 12 13,300 a.u.
2'F-ANA at 1 7 8 10 12,74.1 a.u.
2'F-ANA at 2 3 4 5 7 8 10 12,64.3 a.u.
2'F-ANA at 1 3 7 9 11 12 13 15,361 a.u.
2'F-ANA at 5 6 8 9 10 12 13 14,51.3 a.u.
2'F-ANA at 2 4 12 13,456 a.u.
2'F-ANA at 1 2 4 5 6 7 9 10 11 12 13 14 15,64.2 a.u.

# Single results of other studies
Molecule,target,test,test system,setting,how to read,measurement,value
"PhoQ, residues 284 288 289 292 302 303 ASSHFY","PhoP, residues 12 14 15 18 19 LHTVL (Escherichia coli, UniProt P23836)","Sort-seq, measured: YFP reporter",E. coli,"PhoQ-PhoP variant library, added: 10 µM Mg2+","relative to: high Mg2+ state, higher = stronger signaling",fold induction,65.4
